Measurements from different studies.
Numbers after ± are the reported error.
UCHL1: Ubiquitin carboxyl-terminal hydrolase isozyme L1 (UCHL1, Homo sapiens, UniProt P09936)
Chain of UniProt P09936 (whole entry, looked up): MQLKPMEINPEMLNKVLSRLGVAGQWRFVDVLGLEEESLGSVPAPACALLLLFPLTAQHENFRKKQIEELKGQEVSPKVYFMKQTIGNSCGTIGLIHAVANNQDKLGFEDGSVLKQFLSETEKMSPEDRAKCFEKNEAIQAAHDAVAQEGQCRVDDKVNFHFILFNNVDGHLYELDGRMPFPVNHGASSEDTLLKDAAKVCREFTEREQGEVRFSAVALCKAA
BRD4: Bromodomain-containing protein 4 (BRD4, Homo sapiens, UniProt O60885)
BRD4 BD1: Bromodomain-containing protein 4, BD1 (BRD4, Homo sapiens, UniProt O60885)
BRD4 BD2: Bromodomain-containing protein 4, BD2 (BRD4, Homo sapiens, UniProt O60885)

The labelling of CC#CC(=O)N(Cc1ccc(F)cc1)C1CCN(C(C)=O)CC1 is reported as 19.7% (UCHL1; covalent, intact protein LC-MS; 12.5 µM).
COc1ccc2c(-c3nc(-c4c(C)[nH]c5ccc(OC)cc45)cs3)c[nH]c2c1 gave a ΔTm of 12.5 °C (BRD4; thermal shift; 25 µM; higher = stronger binding).
COc1cc(-c2cc(C(C)=O)n3ccccc23)cc(OC)c1Cn1ccnc1 gave an inhibition of 2.15% (BRD4 BD1; 1 µM).
Cc1cc2c(cc1N1C(=O)c3cccc4c(Cl)ccc(c34)C1=O)n(C)c(=O)n2C gave a delta Tm of 1.3 °C (BRD4 BD2; 10 µM).
The selectivity ratio of Cn1cc(C(=O)Nc2cccc(C(=O)O)c2)ccc1=O is reported as 0.1 (BRD4 BD1; binding, BROMOscan competition binding; relative to: Kd CBP over Kd BRD4 bromodomain 1).
For Cc1[nH]c2ccccc2c1-c1csc(-c2c[nH]c3ccccc23)n1, the ΔTm was 9.5 °C (BRD4; thermal shift; 25 µM; higher = stronger binding).
With CC(=O)N[C@H](C(=O)N1C[C@H](O)C[C@H]1C(=O)NCc1ccc(-c2scnc2C)cc1)C(C)(C)SCCCCCCNC(=O)C[C@@H]1N=C(c2ccc(Cl)cc2)c2c(sc(C)c2C)-n2c(C)nnc21 the −TΔS was 0 ± 1 kcal/mol (BRD4 BD2; ITC; 25 °C, binary).
For COc1cc(-c2cc(C(C)=O)n3ccccc23)c(OC)cc1Cn1ccnc1, the inhibition was -1.54% (BRD4 BD2; 1 µM).
For Cn1nnc2ccc(NC(=O)c3cccc(C(=O)O)c3)cc21, the selectivity ratio was 2.5 (BRD4 BD1; binding, BROMOscan competition binding; relative to: Kd CBP over Kd BRD4 bromodomain 1).
For CCc1cnn2c(NCc3ccc[n+]([O-])c3)cc(N3CCCC[C@H]3CCO)nc12, “chemical shift change” read -0.183 ppm (BRD4; 19F NMR, refers to: tyrosine 97; 47 µM; relative to: free protein).
CCn1c2c(c(=O)[nH]c1=O)C1C(=C(C)N2)C(=O)NCc2ccccc2OCCCOc2ccccc21 (stereo not shown): binding affinity “inactive” (BRD4 BD1; fluorescence polarization; concentration not given).
With N#CC(=Cc1ccc(F)cc1)C(=O)Nc1ccccc1C(F)(F)F the labelling was 10.1% (UCHL1; covalent, intact protein LC-MS; 12.5 µM).
Under “chemical shift change”, CC(=O)Nc1ccc(O)cc1 is recorded as -0.05 ppm (BRD4; 19F NMR, refers to: tyrosine 118; 375 µM; relative to: free protein).

Some of these lines once more:
For CCc1cnn2c(NCc3ccc[n+]([O-])c3)cc(N3CCCC[C@H]3CCO)nc12, “chemical shift change” read -0.183 ppm (BRD4; 19F NMR, refers to: tyrosine 97; 47 µM; relative to: free protein).
